{"data": "Experimental data from different studies", "PRKCQ": "Protein kinase C theta type (PRKCQ, Homo sapiens, UniProt Q04759)", "note": "Lines come from different studies, so protocols differ. Several values in a cell are separate wells, animals, samples, runs or records. ± gives the spread as reported.", "UniProt Q9Y2J8, sequence (whole entry, looked up)": "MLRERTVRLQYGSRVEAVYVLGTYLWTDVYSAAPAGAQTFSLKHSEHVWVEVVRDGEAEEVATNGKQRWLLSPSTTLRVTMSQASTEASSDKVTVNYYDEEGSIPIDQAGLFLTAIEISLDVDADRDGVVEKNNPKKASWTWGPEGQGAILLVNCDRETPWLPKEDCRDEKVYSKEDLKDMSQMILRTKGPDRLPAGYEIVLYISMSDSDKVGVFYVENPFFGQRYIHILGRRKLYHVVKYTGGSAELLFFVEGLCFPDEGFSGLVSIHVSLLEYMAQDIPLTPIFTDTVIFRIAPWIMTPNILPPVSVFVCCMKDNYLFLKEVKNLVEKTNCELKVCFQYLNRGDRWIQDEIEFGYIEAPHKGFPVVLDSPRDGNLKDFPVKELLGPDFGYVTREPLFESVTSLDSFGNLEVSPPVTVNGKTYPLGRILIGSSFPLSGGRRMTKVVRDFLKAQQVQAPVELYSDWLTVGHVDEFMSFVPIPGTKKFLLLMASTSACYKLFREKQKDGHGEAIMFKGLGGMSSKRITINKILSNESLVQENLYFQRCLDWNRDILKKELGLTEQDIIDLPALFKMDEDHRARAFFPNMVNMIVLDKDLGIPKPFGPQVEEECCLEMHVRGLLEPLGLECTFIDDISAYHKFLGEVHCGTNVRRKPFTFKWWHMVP", "UniProt Q04759, sequence (whole entry, looked up)": "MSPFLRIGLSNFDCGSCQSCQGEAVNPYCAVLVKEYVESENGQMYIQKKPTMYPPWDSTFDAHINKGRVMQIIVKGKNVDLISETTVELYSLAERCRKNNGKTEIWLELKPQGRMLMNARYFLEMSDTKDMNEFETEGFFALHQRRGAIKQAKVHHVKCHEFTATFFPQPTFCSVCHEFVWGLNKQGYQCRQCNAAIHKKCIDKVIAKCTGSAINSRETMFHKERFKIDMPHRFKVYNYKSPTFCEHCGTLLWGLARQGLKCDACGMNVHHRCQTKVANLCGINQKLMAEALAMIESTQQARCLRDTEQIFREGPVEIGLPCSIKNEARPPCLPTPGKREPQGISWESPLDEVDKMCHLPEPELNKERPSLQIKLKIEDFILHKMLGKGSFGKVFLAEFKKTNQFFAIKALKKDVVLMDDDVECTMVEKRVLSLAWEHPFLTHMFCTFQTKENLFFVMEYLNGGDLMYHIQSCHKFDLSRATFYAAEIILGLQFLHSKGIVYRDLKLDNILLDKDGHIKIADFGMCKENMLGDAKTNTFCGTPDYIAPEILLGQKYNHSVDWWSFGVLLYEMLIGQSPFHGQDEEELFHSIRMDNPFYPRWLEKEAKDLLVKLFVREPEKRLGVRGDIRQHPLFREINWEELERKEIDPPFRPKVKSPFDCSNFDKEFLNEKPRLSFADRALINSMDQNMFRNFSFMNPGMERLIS", "UniProt P21452, sequence (whole entry, looked up)": "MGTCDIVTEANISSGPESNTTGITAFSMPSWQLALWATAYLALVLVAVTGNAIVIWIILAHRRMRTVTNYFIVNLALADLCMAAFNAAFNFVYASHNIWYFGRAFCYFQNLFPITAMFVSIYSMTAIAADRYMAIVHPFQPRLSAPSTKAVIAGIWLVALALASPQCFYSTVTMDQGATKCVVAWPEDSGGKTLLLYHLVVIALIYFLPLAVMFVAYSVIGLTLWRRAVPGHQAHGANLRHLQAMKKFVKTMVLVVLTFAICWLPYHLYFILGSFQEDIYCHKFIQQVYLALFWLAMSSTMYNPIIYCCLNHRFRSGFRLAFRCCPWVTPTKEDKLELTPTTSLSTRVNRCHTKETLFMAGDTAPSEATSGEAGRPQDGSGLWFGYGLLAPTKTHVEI", "UniProt Q6DWJ6, sequence (whole entry, looked up)": "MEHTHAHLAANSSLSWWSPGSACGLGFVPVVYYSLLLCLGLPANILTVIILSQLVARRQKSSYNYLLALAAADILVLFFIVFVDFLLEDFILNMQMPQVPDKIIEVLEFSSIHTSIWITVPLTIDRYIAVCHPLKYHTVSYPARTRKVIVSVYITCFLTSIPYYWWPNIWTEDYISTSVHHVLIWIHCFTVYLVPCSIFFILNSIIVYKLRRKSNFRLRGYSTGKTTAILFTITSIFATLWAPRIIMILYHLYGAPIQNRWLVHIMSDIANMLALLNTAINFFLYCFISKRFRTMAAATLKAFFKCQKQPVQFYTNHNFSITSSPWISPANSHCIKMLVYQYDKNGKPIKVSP", "UniProt Q8IVH8, sequence (whole entry, looked up)": "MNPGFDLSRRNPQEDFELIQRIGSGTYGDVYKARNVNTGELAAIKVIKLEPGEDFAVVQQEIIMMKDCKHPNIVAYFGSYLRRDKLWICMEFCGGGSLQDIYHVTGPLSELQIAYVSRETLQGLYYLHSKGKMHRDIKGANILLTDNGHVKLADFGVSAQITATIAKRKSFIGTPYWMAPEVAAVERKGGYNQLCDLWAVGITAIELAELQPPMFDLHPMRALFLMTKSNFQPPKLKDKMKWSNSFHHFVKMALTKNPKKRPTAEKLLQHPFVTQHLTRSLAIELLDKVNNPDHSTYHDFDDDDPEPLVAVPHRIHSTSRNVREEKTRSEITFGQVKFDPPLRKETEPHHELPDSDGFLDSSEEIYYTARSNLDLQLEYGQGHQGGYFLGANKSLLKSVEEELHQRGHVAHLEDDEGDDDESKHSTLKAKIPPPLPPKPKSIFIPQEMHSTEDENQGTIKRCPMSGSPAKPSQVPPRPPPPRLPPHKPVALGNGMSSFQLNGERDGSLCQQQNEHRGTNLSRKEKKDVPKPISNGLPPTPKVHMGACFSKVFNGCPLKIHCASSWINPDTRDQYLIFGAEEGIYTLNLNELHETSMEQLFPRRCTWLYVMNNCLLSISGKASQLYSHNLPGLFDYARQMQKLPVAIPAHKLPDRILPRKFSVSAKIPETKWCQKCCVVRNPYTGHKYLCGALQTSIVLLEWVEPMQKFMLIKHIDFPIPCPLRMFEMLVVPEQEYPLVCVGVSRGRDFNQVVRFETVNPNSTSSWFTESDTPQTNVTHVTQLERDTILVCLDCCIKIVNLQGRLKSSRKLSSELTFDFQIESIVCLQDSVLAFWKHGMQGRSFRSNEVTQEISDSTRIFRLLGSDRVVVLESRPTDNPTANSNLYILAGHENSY", "UniProt Q96DB2, sequence (whole entry, looked up)": "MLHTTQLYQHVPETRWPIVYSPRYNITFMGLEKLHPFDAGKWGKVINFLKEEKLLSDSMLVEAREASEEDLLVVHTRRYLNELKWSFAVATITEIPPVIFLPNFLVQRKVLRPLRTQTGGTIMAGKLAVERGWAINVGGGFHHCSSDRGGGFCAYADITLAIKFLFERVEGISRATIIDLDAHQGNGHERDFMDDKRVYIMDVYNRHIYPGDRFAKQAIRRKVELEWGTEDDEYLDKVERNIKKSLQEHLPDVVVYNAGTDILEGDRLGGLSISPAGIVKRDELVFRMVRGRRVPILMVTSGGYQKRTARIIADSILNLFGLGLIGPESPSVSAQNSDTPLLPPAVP", "UniProt O42275, sequence (whole entry, looked up)": "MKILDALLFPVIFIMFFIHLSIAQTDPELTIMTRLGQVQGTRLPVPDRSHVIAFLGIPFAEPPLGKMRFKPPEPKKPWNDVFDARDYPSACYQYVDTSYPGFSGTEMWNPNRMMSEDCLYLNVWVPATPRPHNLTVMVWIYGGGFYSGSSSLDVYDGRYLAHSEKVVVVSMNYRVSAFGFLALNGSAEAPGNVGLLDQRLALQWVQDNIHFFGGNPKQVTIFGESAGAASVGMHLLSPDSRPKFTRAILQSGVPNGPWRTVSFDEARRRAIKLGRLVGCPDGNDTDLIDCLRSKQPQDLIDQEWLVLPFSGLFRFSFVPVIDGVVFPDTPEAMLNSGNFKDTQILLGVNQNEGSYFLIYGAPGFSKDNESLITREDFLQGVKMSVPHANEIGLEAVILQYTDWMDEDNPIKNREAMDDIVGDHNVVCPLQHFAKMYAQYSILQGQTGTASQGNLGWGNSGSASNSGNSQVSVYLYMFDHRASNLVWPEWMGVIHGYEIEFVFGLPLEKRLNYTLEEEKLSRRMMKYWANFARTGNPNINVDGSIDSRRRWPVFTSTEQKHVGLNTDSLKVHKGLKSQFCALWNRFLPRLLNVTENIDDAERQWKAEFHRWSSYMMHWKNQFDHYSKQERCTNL", "UniProt O43148, sequence (whole entry, looked up)": "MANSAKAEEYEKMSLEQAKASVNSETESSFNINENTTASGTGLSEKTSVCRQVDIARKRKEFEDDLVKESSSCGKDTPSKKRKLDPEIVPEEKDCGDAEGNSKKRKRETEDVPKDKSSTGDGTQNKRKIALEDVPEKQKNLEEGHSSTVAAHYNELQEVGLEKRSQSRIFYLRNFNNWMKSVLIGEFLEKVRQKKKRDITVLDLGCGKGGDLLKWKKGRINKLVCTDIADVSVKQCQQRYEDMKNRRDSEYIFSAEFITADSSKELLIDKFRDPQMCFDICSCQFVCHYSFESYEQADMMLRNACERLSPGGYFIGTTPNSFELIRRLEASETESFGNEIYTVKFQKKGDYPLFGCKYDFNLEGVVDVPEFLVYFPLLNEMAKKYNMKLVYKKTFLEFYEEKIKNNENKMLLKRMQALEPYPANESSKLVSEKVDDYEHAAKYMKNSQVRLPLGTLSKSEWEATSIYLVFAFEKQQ", "UniProt P41145, sequence (whole entry, looked up)": "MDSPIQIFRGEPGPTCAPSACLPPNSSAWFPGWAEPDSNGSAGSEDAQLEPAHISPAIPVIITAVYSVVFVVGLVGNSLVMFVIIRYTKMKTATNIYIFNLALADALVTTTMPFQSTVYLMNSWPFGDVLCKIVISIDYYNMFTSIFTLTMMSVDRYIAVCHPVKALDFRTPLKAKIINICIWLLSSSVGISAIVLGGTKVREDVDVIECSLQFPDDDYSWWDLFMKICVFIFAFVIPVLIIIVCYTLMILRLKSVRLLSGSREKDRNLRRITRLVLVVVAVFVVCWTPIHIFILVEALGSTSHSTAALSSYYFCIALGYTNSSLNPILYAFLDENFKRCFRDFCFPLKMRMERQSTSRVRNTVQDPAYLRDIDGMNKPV"}
{"SMILES": "O=C1NC(=O)c2c1c1cc(F)c[n+]3c1c1c2c2cc(O)ccc2[n]1[Ru-4]312([N]=C=S)[S+]3CC[S+]1CC[S+]2CC3 (centres unmarked)", "target or system": "PRKCQ", "assay": "enzyme activity", "setting": "100 nM, human enzyme, with: 10 µM ATP", "how to read": "baseline: untreated", "quantity": "remaining activity", "result": "16%"}
{"SMILES": "Cc1ccc(OCCN(C)C)cc1C(=O)N[C@H](C)c1cc(-c2cnn(CC(=O)N(C)C)c2)nc2ccccc12", "target or system": "African green monkey cells", "setting": "62.5 µM", "quantity": "viability", "result": "108%"}
{"SMILES": "O=C(NC1CCN(c2ncnc3[nH]cnc23)CC1)c1cccc(NS(=O)(=O)c2ccc(C(F)(F)F)cc2)c1", "target or system": "mRNA cap guanine-N(7) methyltransferase (RNMT, Homo sapiens, UniProt O43148)", "assay": "enzyme activity, inhibitor", "setting": "12.21 nM", "quantity": "inhibition", "result": "10.4%"}
{"SMILES": "O=C(Cc1ccc(Cl)c(Cl)c1)N1CCN[C@@H]2COC[C@H](N3CCCC3)[C@H]21 (relative stereo)", "target or system": "Kappa-type opioid receptor (OPRK1, Homo sapiens, UniProt P41145)", "assay": "agonist", "setting": "0.3333 h", "quantity": "Emax", "result": "92%"}
{"SMILES": "CC(C)[C@H]1NC(=O)C[C@H]2/C=C/CCSSC[C@@H](NC1=O)C(=O)N[C@H](Cc1cccc3ccccc13)C(=O)NCC(=O)O2", "target or system": "PRKCQ", "assay": "enzyme activity, inhibitor", "setting": "10 µM", "quantity": "inhibition", "result": "-2.2%"}
{"SMILES": "Cc1cc(C(=O)Nc2nc3cccc(C)c3n2[C@H]2CCCCN(C(=O)/C=C/CN(C)C)C2)ccn1", "target or system": "Trypanosoma brucei", "assay": "propidium iodide flow cytometry, refers to: SubG0 phase", "test system": "bloodstream parental line", "setting": "concentration not given", "quantity": "cell cycle distribution", "result": "5.2% and 3.8% and 4.5%"}
{"SMILES": "CN(C)[C@H]1C[C@@]23CC[C@@]4(O2)C(=CC[C@]2(C)[C@@H](c5ccc6ccncc6c5)CC[C@H]24)C=C3[C@@H](O)[C@@H]1O", "target or system": "Mitogen-activated protein kinase kinase kinase kinase 3 (MAP4K3, Homo sapiens, UniProt Q8IVH8)", "assay": "ATP probe labelling, inhibitor, KiNativ profiling", "setting": "1 µM", "quantity": "inhibition", "result": "-5.4%"}
{"SMILES": "CC[C@H](C)[C@H](NC(=O)[C@H](CCCNC(=N)N)NC(=O)[C@H](CCCNC(=N)N)NC(=O)[C@H](CC(C)C)NC(=O)[C@H](Cc1ccccc1)NC(=O)CNC(=O)CNC(=O)[C@@H](N)Cc1ccc(O)cc1)C(=O)N[C@@H](CCCNC(=N)N)C(=O)N1CCC[C@H]1C(=O)N[C@@H](CCCCN)C(=O)N[C@@H](CC(C)C)C(=O)N[C@@H](CCCCN)C(=O)O", "target or system": "Probable G-protein coupled receptor 139 (GPR139, Homo sapiens, UniProt Q6DWJ6)", "assay": "G protein activation, agonist, BRET, refers to: Gα15", "test system": "HEK-293T/17", "setting": "40 µM", "how to read": "baseline: GαoA response", "quantity": "Emax", "result": "25%"}
{"SMILES": "CCc1nnc(-c2c(OC)cc(-c3cnc4cc(-c5cnn(C)c5)ccn34)cc2OC)o1", "target or system": "5-hydroxytryptamine receptor 1B (HTR1B, Homo sapiens, UniProt P28222)", "assay": "antagonist radioligand, radioligand binding", "setting": "10 µM, SafetyScreen44 5-HT1B replicate 2", "how to read": "lower = stronger displacement", "quantity": "remaining binding", "result": "123%"}
{"SMILES": "CS(C)(=O)=Nc1ccc(-c2ccc(-c3nc4cc(O[C@@H]5CO[C@H]6[C@@H]5OC[C@H]6O)[nH]c4cc3F)cc2)cc1", "target or system": "Mitogen-activated protein kinase 10 (MAPK10, Homo sapiens, UniProt P53779)", "assay": "enzyme activity, inhibitor", "setting": "10 µM", "quantity": "inhibition", "result": "12%"}
{"SMILES": "CCCCCCCCCCCCCCN(O)C(=O)CCCCC[C@@H]1NC(=O)[C@H]2CCCN2C(=O)[C@H](Cc2ccccc2)NC(=O)[C@H](Cc2ccccc2)NC1=O", "target or system": "Histone deacetylase 11 (HDAC11, Homo sapiens, UniProt Q96DB2)", "assay": "inhibitor", "how to read": "baseline: Ki HDAC1 over Ki HDAC11", "quantity": "selectivity ratio", "result": 8.6}
{"SMILES": "O=C1NC2(CC2)COc2ncc(F)cc2[C@H]2COCCN2c2ccn3ncc1c3n2", "test system": "Sprague-Dawley rat, male, adrenals", "setting": "oral, 2.5 mg/kg/day, 4 weeks, end of treatment", "quantity": "organ-to-brain weight ratio", "result": "3.34 ± 0.32%"}
{"SMILES": "Cc1sc2c(c1C)C(c1ccc(Cl)cc1)=NC(CC(=O)OC(C)(C)C)c1nnc(C)n1-2 (centres unmarked)", "target or system": "Substance-K receptor (TACR2, Homo sapiens, UniProt P21452)", "assay": "ligand displacement, radioligand", "setting": "1 µM", "quantity": "inhibition", "result": "56%"}
{"SMILES": "O=C(O)C(/C=C/c1c(Cl)cccc1Cl)=N\\Nc1nc(-c2ccccc2)cs1", "target or system": "Acetylcholinesterase (ache, Electrophorus electricus, UniProt O42275)", "assay": "Ellman", "how to read": "baseline: IC50 BChE over IC50 AChE", "quantity": "selectivity index", "result": 9.68}
{"SMILES": "Cc1ccc(N2CCC(N(C)C)CC2)cc1C(=O)N[C@H](C)c1cc(-c2cnn(C)c2)nc2ccccc12", "target or system": "Vero E6", "setting": "7.812 µM", "quantity": "viability", "result": "91.8% and 89.7% and 87.3%"}
{"SMILES": "N[C@H](C(=O)N1CCCC1)C1CCN(c2nccc3c(-c4ncc(Cl)cc4Cl)cccc23)CC1", "target or system": "Protein-arginine deiminase type-2 (PADI2, Homo sapiens, UniProt Q9Y2J8)", "assay": "thermal shift", "setting": "0.03013 µM", "quantity": "melting temperature", "result": "59.2 °C and 58.4 °C"}
{"SMILES": "CCn1nc(Cl)c2c1-c1cnc(N)c(c1)O[C@H](C)c1cc(F)ccc1-c1nn(C)cc1C2", "target or system": "Ephrin type-A receptor 5 (EPHA5, Homo sapiens, UniProt P54756)", "assay": "kinase activity, inhibitor", "how to read": "baseline: IC50 EPHA5 over IC50 ALK", "quantity": "selectivity ratio", "result": "224 fold"}
{"note": "Some of these lines once more:"}
{"SMILES": "CCCCCCCCCCCCCCN(O)C(=O)CCCCC[C@@H]1NC(=O)[C@H]2CCCN2C(=O)[C@H](Cc2ccccc2)NC(=O)[C@H](Cc2ccccc2)NC1=O", "target or system": "Histone deacetylase 11 (HDAC11, Homo sapiens, UniProt Q96DB2)", "assay": "inhibitor", "how to read": "baseline: Ki HDAC1 over Ki HDAC11", "quantity": "selectivity ratio", "result": 8.6}
{"SMILES": "O=C1NC2(CC2)COc2ncc(F)cc2[C@H]2COCCN2c2ccn3ncc1c3n2", "test system": "Sprague-Dawley rat, male, adrenals", "setting": "oral, 2.5 mg/kg/day, 4 weeks, end of treatment", "quantity": "organ-to-brain weight ratio", "result": "3.34 ± 0.32%"}
